Experimental data pooled from the literature.
Numbered parts are unrelated; each lists some results of a single study. Changes are numbered by the printed parent chain.

Set 1 — method: protein-binding microarray; molecule type: double-stranded DNA, one strand shown; sample: in vitro; concentration: 2540 nM top; setting: 60-bp whole probe; together with: salmon DNA 0.4 mg/ml; relative to: random background probes; reading: higher = stronger binding; measurement: fitted relative affinity; constant ends, left off below: GCCTAGCAC … GTCTTGATTCGCTTGACGCTGCTG
Target: Interferon regulatory factor 3, full length, phosphomimetic (IRF3, Homo sapiens, UniProt Q14653, residues 1-427, S386D/S396D/S398D/S402D/T404D/S405D)
Target sequence (chain): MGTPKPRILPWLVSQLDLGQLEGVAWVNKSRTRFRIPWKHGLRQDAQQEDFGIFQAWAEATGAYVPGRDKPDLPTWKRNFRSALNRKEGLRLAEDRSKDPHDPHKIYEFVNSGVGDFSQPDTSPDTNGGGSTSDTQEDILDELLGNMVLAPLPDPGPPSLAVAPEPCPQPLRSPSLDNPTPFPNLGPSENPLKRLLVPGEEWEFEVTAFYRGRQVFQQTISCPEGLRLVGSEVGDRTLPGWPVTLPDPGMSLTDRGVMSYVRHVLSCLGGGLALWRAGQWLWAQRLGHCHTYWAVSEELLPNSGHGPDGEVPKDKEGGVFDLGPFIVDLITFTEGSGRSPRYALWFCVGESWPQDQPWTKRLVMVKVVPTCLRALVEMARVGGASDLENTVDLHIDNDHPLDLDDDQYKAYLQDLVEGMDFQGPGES
TTAGGTAACGGTATCGGTTAGTGCTAG: 2.17 z-score
TTAGGTATCGGACAGGGTTAGTGCTAG: 0.232 z-score
TGCTTTCTCTTTCATTGCTGCGTGCTA: 3.72 z-score
TTTATTTATTTATTTATTTAGTGCTAG: 1.03 z-score
TCGAGTCTGCAACATGGGACTGTGCTA: -0.328 z-score
TTAGGTCTCCTTATCCTTCAGTGCTAG: 2.65 z-score
GACGGTGTCCTTTTCCTGACGTGCTAG: 4.35 z-score
GTAGGACTGGGACTGGGTTAGTGCTAG: -0.928 z-score
GACGATCTCAGACTGGAGATGTGCTAG: 0.214 z-score
TACGGTTTCCTACTGCTGACGTGCTAG: 4.99 z-score
GACGGTATCCTTAACCTGACGTGCTAG: 2.33 z-score
GACGATCTCTGTCTCGAGACGTGCTAG: 0.549 z-score
TCAAGTATGTTCCTTATTACTGTGCTA: 1.66 z-score
GACGAACTGGGTCTCGGGACGTGCTAG: -0.519 z-score
GTGCTTCACAGAGGCGGCTGGTGCTAG: -0.689 z-score
GACGGTATCGGTTTCGGGAAGTGCTAG: 6.78 z-score
GAGCCTCTGTTTTGAGCACAGTGCTAG: -0.232 z-score
TTAGGTCTTCTTATCCTTTAGTGCTAG: 0.51 z-score
TCACATCTCATATAAATAACTGTGCTA: 1.4 z-score
TCAGTTTTCATTTTATGACTGTGCTAG: 5.09 z-score
GTCGGTTTCGGTCTCGGGACGTGCTAG: 9.06 z-score
TCATTTCCCTATTATATAACTGTGCTA: 4.25 z-score

Set 2 — method: RNA Bind-n-Seq; molecule type: RNA; sample: in vitro; concentration: 365 nM; relative to: no-protein control; reading: higher = stronger binding; measurement: RBNS enrichment (R)
Target: RNA binding protein fox-1 homolog 2, RRM domain, GST-SBP tag (RBFOX2, Homo sapiens, UniProt O43251-10, residues 100-194)
Setting: natural RNA segment, single round, ends assumed
Target sequence (chain): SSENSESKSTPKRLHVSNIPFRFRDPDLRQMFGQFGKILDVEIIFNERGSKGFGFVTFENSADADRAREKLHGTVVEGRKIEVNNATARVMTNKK
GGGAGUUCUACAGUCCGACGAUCUCUUGUAGUCAGGCAGUAUAGUGUAGCAGGGCAAUCUGUCUGACACCUAAAUGGACUUGAAAUUGAAGCAGGAAGGUUGGGUUCUCCAUGGAUGGAACUCACCUGCCUGAUGGAAUUCUCGGGUGCCAA: 0.729
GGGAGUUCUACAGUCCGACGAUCGCAAAUUAUAAAAGUAAACAGGUUUUUUUGUUUGGUUUUUCAAUCAUAGCAAUCGGAAUUAUUUUAAAUUCAAAAAUUGAUGCCCUCCCAAACCCCCCAAAGUAAAAAUUUGGAAUUCUCGGGUGCCAA: 0.518
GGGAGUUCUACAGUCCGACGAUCGCCUCCUCCUUUCUCUGGCCUCUUCCCCCUUCCCUCUUCUCUUCAGCUAGGCUAGCUGGUUUGGAGUAGAAUGGCAACUAAUUCUAAUUUUUAUUUAUUAAAUAUUUGGGUGGAAUUCUCGGGUGCCAA: 0.385
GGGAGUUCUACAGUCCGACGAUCCAGCGGAUUGCUGUGGGCUGGUUCAUAAAGUGAAACUAAUGAAUCUAUCUCUUUGUCACUUGCUGGUACAGCUAGUUUGUUUCACUUGCACAUUUGUACAUAUAUCUAAUUGGAAUUCUCGGGUGCCAA: 0.479
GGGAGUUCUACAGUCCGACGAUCGUAGGGAAGGAGGGACUGCUCUGCAGGAAGUGGUAUCUGUUCUUUAGACUGCUCUCCUUAGGGAGGAGCCAAGAGGGAUUUCCAUGCACACUGCCCAUGGUGGGUUUAAGUGGAAUUCUCGGGUGCCAA: 0.468
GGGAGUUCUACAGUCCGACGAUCCGCCUGGAGCGCAUCGAGUCCACUGAAAUCUGAUUCUCUACGUGCACAACCUUCUGACACGUGCCCUGUCUGAAGGUCGGAGUCACCAAUGUCCCUUCCAUUCAUCUCCCUGGAAUUCUCGGGUGCCAA: 0.514
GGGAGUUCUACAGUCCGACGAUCCCUCUAGGAUGAGCUCAGAGCGAGAGAUGACACAAUGCCUCACUCAGGCCCCGGGCUCCCUGGCCACAAGCUUUUUCUAUCCUGUUUUCAUGACAGAGAAGGGGAAGCCCUGGAAUUCUCGGGUGCCAA: 0.204
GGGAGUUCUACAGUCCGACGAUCGCACCUGUCAUCCCAGUCCAUCCCACCGUUCCCUUACUGUACUCUGCAACUCACCAUCUGGAAUUAAGUGACAUGCUUUAAAACUUAAGAGUUUAGAAGAAACAAAAGGCUGGAAUUCUCGGGUGCCAA: 1.06
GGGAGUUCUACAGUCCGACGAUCUCAUUUAGGGAGGUGGAUAUUCUGAUGAAGAUCUUUAUCCUAAACCUUCCUACUAUCCUUGUCUUAUUCAUCAAGCAGAUAUUUUAGUCAAGAAUUCCAGAGAAGGCUGCUGGAAUUCUCGGGUGCCAA: 0.43
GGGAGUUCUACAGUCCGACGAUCGUGGGCUGGAACGGUUCCACCUUCGCUUGAGUCCUGGCCCCACUUACCUGCACCGCUGUUCUUUGAGCCUCGCUCCACGUAGUGUUCUGUGUUUAUCCACCGGUAGCGAUUGGAAUUCUCGGGUGCCAA: 0.934
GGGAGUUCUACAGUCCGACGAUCUCCUUGCUCCUCCCAGUCCUGCACUGGCAUGAGUUCGGGUGUAGGAGGACAUGACUCCAAGGUGCUGGGAGAUGCACCAGUCUUGCGCAGCAGCACCUGUGGUCUGGCCUUGGAAUUCUCGGGUGCCAA: 2.81
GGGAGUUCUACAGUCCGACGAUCGAAAGCCCGCAUCACAGUGUUCAGUGACUGCUCUGCUCCAUUCUUUCUCCUCUCCAGUUUCUCUCUUGAAAGUCAAACAGUUUUGUAGUUGAAGCAGUCCGUGUGCAAAGUGGAAUUCUCGGGUGCCAA: 0.354

Set 3 — method: DHFR PCA, deep sequencing; sample: yeast; together with: (+)-ABA 0.0091 µM; relative to: wild-type fitted maximum; reading: higher = stronger binding; measurement: relative binding score
Target: ABI1, truncated, D143A, DHFR fusion (Arabidopsis thaliana)
Setting: methotrexate growth selection, single substitutions
Parent: PYL1, truncated, DHFR fusion (Arabidopsis thaliana); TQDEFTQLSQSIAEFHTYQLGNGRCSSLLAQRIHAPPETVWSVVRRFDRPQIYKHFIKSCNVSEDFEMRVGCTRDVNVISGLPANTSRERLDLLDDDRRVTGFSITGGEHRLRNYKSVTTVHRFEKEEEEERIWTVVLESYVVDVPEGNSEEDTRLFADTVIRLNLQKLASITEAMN
M68H: -0.572%
R45F: -5.14%
N61F: 22.7%
R113H: 13.8%
R90L: -3.21%
T160W: 1.03%
V76L: 5.27%
E151R: 13%
T39I: 54.3%
L93C: 0.472%
V118R: 54.5%
R98D: -6.84%
E127P: 51.6%
K126F: 12.2%
N61H: 46.2%
T135W: -16.4%

Set 4 — target: CCNF, cyclin fold, Cln2 fusion (human); method: yeast growth competition, sequencing; sample: yeast; setting: strong parent motif; relative to: not given; reading: higher = stronger binding; measurement: normalised enrichment score
Parent: ORC1 docking peptide (human); PRARKRLELGNLG
PRARKRLELHNLG [G10H]: 2.55
PRARKRLEPGNLG [L9P]: 0.505
PRARERLELGNLG [K5E]: 0.384
PRARKRLELGNKG [L12K]: 2.21
PRARKRIELGNLG [L7I]: 0.875
PRARKRLELGNLA [G13A]: 3.03
PRARMRLELGNLG [K5M]: 0.514
PRTRKRLELGNLG [A3T]: 2.8
PRARKRLELGILG [N11I]: 2.77
DRARKRLELGNLG [P1D]: 4.06
PRADKRLELGNLG [R4D]: 0.503
PWARKRLELGNLG [R2W]: 3.49
PRARKRLELGNIG [L12I]: 3.53
PRARKRLELGMLG [N11M]: 4.4
PNARKRLELGNLG [R2N]: 4.39
PRARKRLELGDLG [N11D]: 4.23
PRARKRLSLGNLG [E8S]: 2.06
PRARKRLEAGNLG [L9A]: 1.84
PVARKRLELGNLG [R2V]: 2.96
PRARKRLTLGNLG [E8T]: 0.506
PRARKRLELGNAG [L12A]: 3.56
VRARKRLELGNLG [P1V]: 3.38
PRARKRLLLGNLG [E8L]: 2.77
CRARKRLELGNLG [P1C]: 6.61
PRARKRLELGNVG [L12V]: 3.98

Set 5 — method: RNAcompete; molecule type: RNA; sample: in vitro; concentration: 20 nM; setting: 7-mer, probes averaged, single round; relative to: mean of 7-mers; reading: higher = stronger binding; measurement: 7-mer Z-score
Target: PABPC1L2, full length, GST fusion (mouse, UniProt A0ABA7IW68)
Target sequence (chain): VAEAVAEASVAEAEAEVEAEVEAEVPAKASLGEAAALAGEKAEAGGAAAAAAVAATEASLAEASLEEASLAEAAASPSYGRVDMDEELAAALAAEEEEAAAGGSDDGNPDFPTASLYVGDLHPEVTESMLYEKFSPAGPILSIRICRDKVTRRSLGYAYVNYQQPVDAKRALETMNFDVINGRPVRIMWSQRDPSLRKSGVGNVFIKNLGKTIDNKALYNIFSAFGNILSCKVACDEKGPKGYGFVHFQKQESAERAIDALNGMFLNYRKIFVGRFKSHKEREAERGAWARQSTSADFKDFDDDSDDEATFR
GGAAGAC: 0.017
ACUAGAU: 0.0315
UAAAAUA: 3.11
CGCCUGG: -0.289
GGUCCGA: 0.066
GUCGAUG: -0.177
UAUGUAG: -0.0554
GCACACC: -0.175
CUGCAGC: -0.376
CAGUACU: -0.325
UAAAACC: 0.914
UGGCAUU: -0.104
UACCGUC: -0.295
GACCAGG: 0.0243
GCAUGAA: 0.193
GCACGAG: 0.0732
CGCAGAU: -0.166
GCCAAGA: -0.021
CUCUCUC: -0.465
CCAAGUG: -0.0935
GCACUGG: 0.1
CGUUGUC: -0.49
UUGACAC: -0.141
UUUCUCG: -0.418
GUCAUGU: -0.307

For quick reference, copied from above (set 4):
PRARKRLEPGNLG [L9P]: 0.505
PRARERLELGNLG [K5E]: 0.384
PRARKRLELGNKG [L12K]: 2.21
PRARKRIELGNLG [L7I]: 0.875
PRARKRLELGNLA [G13A]: 3.03
PRARMRLELGNLG [K5M]: 0.514
PRTRKRLELGNLG [A3T]: 2.8
